Assay results from different studies.
Every numbered part comes from another study and shows a few of its results, in no order. Changes are numbered by the printed parent chain.

Set 1
Target: Ras GTPase-activating protein-binding protein 1, RRM domain (G3BP1, Homo sapiens, UniProt Q13283)
Sequence of UniProt Q13283 (whole entry, looked up): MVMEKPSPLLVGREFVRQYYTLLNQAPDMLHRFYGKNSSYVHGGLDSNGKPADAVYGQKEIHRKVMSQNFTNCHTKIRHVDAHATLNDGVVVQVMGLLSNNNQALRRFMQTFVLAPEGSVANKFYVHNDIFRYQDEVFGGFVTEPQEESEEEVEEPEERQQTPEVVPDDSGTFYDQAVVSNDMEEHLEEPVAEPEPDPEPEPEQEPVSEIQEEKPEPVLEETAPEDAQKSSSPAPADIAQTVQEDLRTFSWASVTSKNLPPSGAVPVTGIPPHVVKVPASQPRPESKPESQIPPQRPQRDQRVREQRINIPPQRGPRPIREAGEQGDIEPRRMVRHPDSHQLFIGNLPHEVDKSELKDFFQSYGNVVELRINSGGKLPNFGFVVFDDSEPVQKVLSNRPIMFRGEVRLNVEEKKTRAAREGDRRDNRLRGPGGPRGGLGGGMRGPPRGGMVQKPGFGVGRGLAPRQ
Technique: RNA Bind-n-Seq
Form: RNA
Sample: in vitro
Concentration: 1 µM
Notes: whole 134-nt RNA, ends assumed
Together with: 150 mM KCl
Baseline: input library
Reading: higher = stronger binding
Strand	log2 enrichment
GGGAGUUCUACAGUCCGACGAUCAAGUCCUGUGCUACACAUCGUAUGUACCGAAUCGGGUUUGGGUUUUUUUGGGAGGGAAAGUAUUAUGUUACGCCGUUCGGAUCUGCACUUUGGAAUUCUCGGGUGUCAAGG	0.631
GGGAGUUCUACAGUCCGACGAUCCUGUGCUACACAUCGUAUGUACCGAAUCGGAAAAAAAGGGAAAAAAAGGGAAAAAAAGGGGAAAGUAUUAUGUUACGCCGUUCGGAUCUGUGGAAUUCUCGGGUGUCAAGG	0.0414
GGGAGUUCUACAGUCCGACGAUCACCAUGCAGGUGGGCAUCUUUGGGAAGUGGGGCAAGGGGGGGAUAGGGAGGGGGGUUACACUUUGGGAACAGGUGGUCCCAGGUCGUUUCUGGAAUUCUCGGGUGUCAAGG	-0.091
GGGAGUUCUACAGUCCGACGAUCGUCCUGUGCUACACAUCGUAUGUACCGAAUCGGGCCCCGGGGCCCCGGGGCCCCGGGGAAAGUAUUAUGUUACGCCGUUCGGAUCUGCACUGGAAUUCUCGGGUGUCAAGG	-0.742
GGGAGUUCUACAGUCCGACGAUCUAACUUUAGAGGAGGAUCUGAUGGAUAUGGCAGUGGACGUGGAUUUGGGGAUGUCUAUAAUGGGUAUGGAGGAGGACCUGGAGGUGGCAAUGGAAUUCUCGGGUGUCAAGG	-0.249
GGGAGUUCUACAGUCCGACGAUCUCCUCAAGUCCUGUGCUACACAUCGUAUGUACCGAAUCGGGAGGGAGGAGGGAAAGUAUUAUGUUACGCCGUUCGGAUCUGCACUUCCAGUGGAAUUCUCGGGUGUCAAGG	-0.0265
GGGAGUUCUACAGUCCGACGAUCUCCUGUGCUACACAUCGUAUGUACCGAAUCGGGGAGGGGAAAAAGGGGAAAAAAAGGGGAAAGUAUUAUGUUACGCCGUUCGGAUCUGCAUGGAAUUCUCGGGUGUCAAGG	0.591
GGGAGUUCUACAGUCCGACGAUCGCAGGAAGUAAAAACAAAUGGAAAUGCUUCAGAUAGUGGCAGGGGUGGGGGUUGCUAAGGAAAGGGUGGGAUGGGAGUGGGUAAAGAGUUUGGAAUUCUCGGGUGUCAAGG	1.01
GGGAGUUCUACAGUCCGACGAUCGCAGGAAUUAAAAACAAAUGGAAAUGCUUCGGAUAGUGGCAGGGGUGGGGGUUGCUAAGGAAAGGGUGGGAUGGGAGUGGGUAAAGAGUUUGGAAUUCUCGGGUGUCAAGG	1.31
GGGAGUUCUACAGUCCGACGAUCUGGCCCGGGUGGCAUGCGGGGAGGAAGAGGUGGCCUCAUGGAUCGUGGUGGUCCCGGUGGAAUGUUCAGAGGUGGCCGUGGUGGAGACAGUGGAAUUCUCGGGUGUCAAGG	0.531
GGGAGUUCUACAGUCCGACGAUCCCUGUGCUACACAUCGUAUGUACCGAAUCGGGCCCCCCCGGCCCCCCCGGGCCCCCCCGGGAAAGUAUUAUGUUACGCCGUUCGGAUCUGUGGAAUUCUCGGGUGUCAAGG	-0.67
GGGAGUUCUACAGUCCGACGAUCUCCUCAAGUCCUGUGCUACACAUCGUAUGUACCGAAUCGGAAGGAAGGAAGGAAAGUAUUAUGUUACGCCGUUCGGAUCUGCACUUCCAGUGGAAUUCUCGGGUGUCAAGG	-0.0873
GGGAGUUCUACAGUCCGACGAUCUGGACAGGUUGCUGGACCCCGCCAACAGAGCCCACCUGGGCCUGGAGGAGCAGCUGAGAGAGCUGCUGGACAUGCUCGACCUCACCUGCGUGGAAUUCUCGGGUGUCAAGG	-0.779
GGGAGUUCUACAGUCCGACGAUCCAAGUCCUGUGCUACACAUCGUAUGUACCGAAUCGGGGUUUGGUUUGGGGUUUGGGAAAGUAUUAUGUUACGCCGUUCGGAUCUGCACUUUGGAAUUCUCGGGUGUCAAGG	-0.00765

Set 2
Target: CCND3, cyclin fold, Cln2 fusion (human)
Technique: yeast growth competition, sequencing
Sample: yeast
Notes: weak parent motif
Baseline: not given
Reading: higher = stronger binding
Starting sequence: RBL2 docking peptide (human); STTRRRLFVENDS
Change	normalised enrichment score
STTRRRAFVENDS [L7A]	0.144
STTRRRLYVENDS [F8Y]	0.0497
STTRRELFVENDS [R6E]	0.049
STTRRRLIVENDS [F8I]	0.158
STTRRRLFYENDS [V9Y]	0.133
STTSRRLFVENDS [R4S]	0.0234
STTRRRLCVENDS [F8C]	0.115
STTRRRLKVENDS [F8K]	0.134
STTHRRLFVENDS [R4H]	0.0688
STTRRRLFVENDK [S13K]	0.048
STTDRRLFVENDS [R4D]	0.00748
STTRKRLLVENDS [R5K F8L]	-0.338
STTRRRLFVENAS [D12A]	-0.0288
STTRRRLFVENDL [S13L]	0.115
STTRARAFVENDS [R5A L7A]	0.0136
STQRRRLFVENDS [T3Q]	0.153
STTRRRLFVHNDS [E10H]	0.13
STCRRRLFVENDS [T3C]	0.168
STTRRRLFVLNDS [E10L]	0.116
HTTRRRLFVENDS [S1H]	0.137
STTRRRLDVENDS [F8D]	0.108
STTRRRTFVENDS [L7T]	0.0619
STTRRRLFPENDS [V9P]	0.083

Set 3
Target: Sal-like protein 4, full length isoform A (SALL4, Homo sapiens, UniProt Q9UJQ4, residues 1-1053)
Sequence of UniProt Q9UJQ4 (whole entry, looked up): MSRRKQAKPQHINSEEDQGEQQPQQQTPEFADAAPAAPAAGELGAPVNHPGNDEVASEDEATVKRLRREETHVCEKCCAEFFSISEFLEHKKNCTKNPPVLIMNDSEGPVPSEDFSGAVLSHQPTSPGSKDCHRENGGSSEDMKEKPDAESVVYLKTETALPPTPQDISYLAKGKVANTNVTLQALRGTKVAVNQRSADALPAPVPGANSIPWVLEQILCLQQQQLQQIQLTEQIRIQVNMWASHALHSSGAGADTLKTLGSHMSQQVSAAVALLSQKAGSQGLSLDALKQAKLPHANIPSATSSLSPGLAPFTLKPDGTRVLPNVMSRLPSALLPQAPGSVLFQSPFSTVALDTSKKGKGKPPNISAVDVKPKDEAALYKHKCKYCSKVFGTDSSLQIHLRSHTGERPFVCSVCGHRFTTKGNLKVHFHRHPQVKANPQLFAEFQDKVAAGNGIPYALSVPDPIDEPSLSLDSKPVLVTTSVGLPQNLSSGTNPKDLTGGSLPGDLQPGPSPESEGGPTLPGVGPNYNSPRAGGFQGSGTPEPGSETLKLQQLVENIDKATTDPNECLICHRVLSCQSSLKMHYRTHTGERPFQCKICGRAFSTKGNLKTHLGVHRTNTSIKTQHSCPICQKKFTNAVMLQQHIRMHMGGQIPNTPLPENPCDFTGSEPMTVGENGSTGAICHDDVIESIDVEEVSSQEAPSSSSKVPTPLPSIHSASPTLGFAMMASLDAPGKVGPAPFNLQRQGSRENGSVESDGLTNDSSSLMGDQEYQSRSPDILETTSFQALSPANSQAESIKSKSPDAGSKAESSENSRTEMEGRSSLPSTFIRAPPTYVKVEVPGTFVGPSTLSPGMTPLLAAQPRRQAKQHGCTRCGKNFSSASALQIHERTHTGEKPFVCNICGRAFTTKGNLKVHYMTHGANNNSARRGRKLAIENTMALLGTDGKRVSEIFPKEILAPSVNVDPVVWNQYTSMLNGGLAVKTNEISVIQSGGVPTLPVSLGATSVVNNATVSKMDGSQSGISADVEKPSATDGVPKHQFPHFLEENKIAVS
Technique: universal PBM
Form: double-stranded DNA, one strand shown
Sample: in vitro
Concentration: 600 nM
Notes: 8-mer, flanks averaged, mean of replicates
Reading: higher = stronger binding
Strand	E-score
CTTACTAA	0.133
CGACCGGC	-0.323
AAGTAGAA	0.216
AACAAGAG	0.0717
ACCAGCGG	-0.255
AGGAAGAT	-0.0391
CAAGAGGA	-0.0342
CTGGACAG	-0.165
AGAGGGAC	-0.203
CGCTACAG	-0.0585
CCAGGAGG	-0.259
TCAAAGCA	0.152
TACTCGAA	0.16
CGCTAAAA	0.00773
CAGAGACG	-0.143
AAAGGAGC	-0.0257
ACTCGGCG	-0.282
AATCACGC	0.00844
CGCTGCGA	-0.182
CGTTGGTC	-0.177
ACACTGTC	0.0473
ATAATTGA	0.362
AACAGGGA	0.0541
CAGGAAGG	-0.21
CTGCACTC	-0.17

Set 4
Target: MAFK, bZIP domain (human)
Technique: DHFR protein complementation
Sample: yeast
Notes: single substitutions, most at no-binding floor
Baseline: wild-type JUN-FOS pair
Reading: higher = stronger binding
Starting sequence: JUN, bZIP domain (human); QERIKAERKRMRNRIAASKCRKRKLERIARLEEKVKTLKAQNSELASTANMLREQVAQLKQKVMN; partner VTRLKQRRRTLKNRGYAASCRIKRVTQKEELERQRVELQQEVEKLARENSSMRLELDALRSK
Change	binding fitness [natural log]
A57N	-1.63
E44H	-1.48
E44Q	-1.42
Q55E	-1.41
K34S	-1.51
A49M	-1.22
T48S	-1.47
A46P	-1.47
K34W	-1.38
E33V	-1.48
E32H	-1.46
Q41D	-1.46
V35T	-1.42
E33W	-1.51
N42M	-1.35
K39E	-1.55
V56A	-1.47
E33C	-1.55
A29L	-1.5
A57D	-1.49
A29V	-1.47
E44M	-1.62
N42I	-1.23

Set 5
Target: Centromere-binding protein 1, full length, His-tagged (CBF1, Saccharomyces cerevisiae, UniProt P17106, residues 1-351)
Sequence of UniProt P17106 (whole entry, looked up): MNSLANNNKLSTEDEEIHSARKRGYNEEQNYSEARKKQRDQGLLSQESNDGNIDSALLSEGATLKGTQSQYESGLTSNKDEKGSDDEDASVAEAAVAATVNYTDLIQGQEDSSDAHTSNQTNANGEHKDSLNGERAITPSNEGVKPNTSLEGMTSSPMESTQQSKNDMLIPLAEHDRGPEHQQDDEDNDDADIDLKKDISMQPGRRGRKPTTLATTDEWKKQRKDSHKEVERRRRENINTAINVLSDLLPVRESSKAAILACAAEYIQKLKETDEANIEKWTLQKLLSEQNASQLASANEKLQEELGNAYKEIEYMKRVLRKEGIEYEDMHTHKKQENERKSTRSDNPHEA
Technique: competition protein-binding microarray
Form: double-stranded DNA, one strand shown
Sample: in vitro
Concentration: 2 µM
Notes: whole 60-bp probe, lowest competitor level
Together with: Pho4 competitor, 0.05 µM
Reading: higher = stronger binding
Strand	fluorescence intensity [a.u.]
TGCCATTGATCCAGTCTCGTGACTCGGACAGAACTGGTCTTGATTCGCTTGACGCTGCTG	1320
CATACCCAACCTTGGACCGTGGGTGAAGATATTTGTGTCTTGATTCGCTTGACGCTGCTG	70.9
GGTCTCCTCGGTGAGAACGTGATGGGATAGCCGTTAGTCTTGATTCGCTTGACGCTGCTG	299
AATTCATAATCTTTGCACGTGACTCGCATTTGATACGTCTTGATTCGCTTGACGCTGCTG	11500
AGGCATACCCTTGTTCATGTGGGGGCATTCAATGGGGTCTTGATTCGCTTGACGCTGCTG	82.3
GAGGTTTACTCCAGTTTCGTGGGACTGTGCATTTTCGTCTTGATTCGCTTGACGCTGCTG	58.4
TTCTTTATCTGATGATTCGTGATGGTCTAAATCTGCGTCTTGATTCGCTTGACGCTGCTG	83.3
CATTTAAAGCTAATGAAATGTACCTCTCGCTTCATTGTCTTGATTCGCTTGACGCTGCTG	78.7
GGCATATCAATATGACATGTGATATCACTCCGCGGCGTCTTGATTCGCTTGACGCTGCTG	738
CTTCTGTAAATTTGATAAGTGGGTGGACGCGCCCCGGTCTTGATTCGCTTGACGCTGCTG	76.6
CATACCCAACCTTTTCACGTGGGGTAAGATATTTGTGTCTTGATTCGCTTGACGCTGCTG	948
GCTATACGACAGCTGCATGATCAAGTGCCGCTTGTCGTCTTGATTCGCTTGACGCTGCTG	97.7
GAAGCATGCTGTCCTCACGGGAATTATATTGTGTGAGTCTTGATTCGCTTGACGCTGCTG	115
GAGCAAGATACTTAGCACGTGAAGCGAGGAACAGTTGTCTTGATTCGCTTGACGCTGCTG	1310
AAAGCGGTAATTTTTCACGTGGAGTCAAATATCTATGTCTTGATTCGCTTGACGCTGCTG	897
ATGGACACTTTAAAGCACGTTTTGCTTGAAGAGACAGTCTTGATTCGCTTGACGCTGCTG	155
ATTGTCATCATCATCAGCGTGAGAAAGTCGAAACAAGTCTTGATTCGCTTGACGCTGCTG	88.1
CAGAAGGCAGACCATCACGATTGATAAAGATTAAGCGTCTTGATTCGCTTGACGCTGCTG	76.8
CATACCCAACCTTGTACGGTGGGTGAAGATATTTGTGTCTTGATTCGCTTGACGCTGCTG	60.8
TTCAACCTTCCCTAACACATGAAACTATTATTGGTTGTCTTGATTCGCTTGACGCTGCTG	82
AAAGCGGTAATTTTTCACGTGCCCTCACATATCTATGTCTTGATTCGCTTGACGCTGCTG	1260
CTTCTGTAAATTTGCTTAGTGGGTGGACGCGCCCCGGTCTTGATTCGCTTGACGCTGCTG	70.3
CGTCCTAGTGATTGTAGCGTGGGTGCCATGAGGAAGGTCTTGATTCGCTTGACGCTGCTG	84.2
TCTTCTTTGCCACATCACCTGACGCACCAAAGACAGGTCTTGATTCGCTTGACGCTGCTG	1380

For quick reference, copied from above (set 3):
Strand	E-score
ACTCGGCG	-0.282
AATCACGC	0.00844
CGCTGCGA	-0.182
CGTTGGTC	-0.177
ACACTGTC	0.0473
ATAATTGA	0.362
AACAGGGA	0.0541
